Experimental data gathered from unrelated publications.
A part holds a random share of what one study measured. Values joined by “and” are separate records of one study, mostly repeats; a detail may differ.
Sequence of UniProt P07949 (whole entry, unmodified, looked up): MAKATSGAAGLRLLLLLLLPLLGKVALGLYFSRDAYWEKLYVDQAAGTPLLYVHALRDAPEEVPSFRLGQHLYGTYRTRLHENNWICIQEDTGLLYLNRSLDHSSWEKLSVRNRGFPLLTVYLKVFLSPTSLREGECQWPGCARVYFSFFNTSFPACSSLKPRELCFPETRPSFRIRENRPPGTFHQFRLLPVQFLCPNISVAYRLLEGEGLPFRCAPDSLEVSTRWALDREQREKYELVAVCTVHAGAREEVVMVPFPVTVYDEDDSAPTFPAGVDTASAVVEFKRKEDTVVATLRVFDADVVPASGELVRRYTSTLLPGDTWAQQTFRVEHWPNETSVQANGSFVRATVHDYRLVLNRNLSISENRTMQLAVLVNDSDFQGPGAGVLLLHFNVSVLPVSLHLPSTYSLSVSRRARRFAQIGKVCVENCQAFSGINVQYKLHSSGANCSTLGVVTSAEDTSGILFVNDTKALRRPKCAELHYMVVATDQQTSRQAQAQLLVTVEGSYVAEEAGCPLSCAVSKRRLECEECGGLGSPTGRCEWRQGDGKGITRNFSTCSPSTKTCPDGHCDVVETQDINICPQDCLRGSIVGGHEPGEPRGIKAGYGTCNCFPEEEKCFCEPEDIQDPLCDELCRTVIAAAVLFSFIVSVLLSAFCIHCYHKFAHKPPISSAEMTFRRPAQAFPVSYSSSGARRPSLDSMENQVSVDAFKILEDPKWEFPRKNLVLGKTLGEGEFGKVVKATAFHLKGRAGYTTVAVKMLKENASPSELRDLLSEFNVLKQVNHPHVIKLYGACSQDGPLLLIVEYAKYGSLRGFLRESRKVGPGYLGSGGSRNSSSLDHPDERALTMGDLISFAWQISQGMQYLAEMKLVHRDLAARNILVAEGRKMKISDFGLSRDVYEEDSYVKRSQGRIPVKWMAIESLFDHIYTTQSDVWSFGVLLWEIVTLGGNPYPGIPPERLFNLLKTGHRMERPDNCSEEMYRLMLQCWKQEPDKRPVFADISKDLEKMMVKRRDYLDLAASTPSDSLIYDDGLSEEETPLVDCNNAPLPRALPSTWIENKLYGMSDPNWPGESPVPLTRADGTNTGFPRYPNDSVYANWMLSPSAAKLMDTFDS
Sequence of UniProt Q9P1W9 (whole entry, looked up): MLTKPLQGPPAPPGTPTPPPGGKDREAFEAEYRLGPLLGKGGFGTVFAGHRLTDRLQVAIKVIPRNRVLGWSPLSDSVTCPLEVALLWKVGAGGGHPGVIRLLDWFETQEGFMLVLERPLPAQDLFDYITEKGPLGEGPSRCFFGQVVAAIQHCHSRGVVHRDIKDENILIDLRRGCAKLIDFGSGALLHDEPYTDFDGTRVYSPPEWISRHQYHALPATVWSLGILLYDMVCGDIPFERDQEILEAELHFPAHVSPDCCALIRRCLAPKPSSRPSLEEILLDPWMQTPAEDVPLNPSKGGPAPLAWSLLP

Block 1 — observed: enzyme activity; action: inhibitor; concentration: 0.5 µM; relative to: control
Target: Serine/threonine-protein kinase ULK1 (ULK1, Homo sapiens, UniProt O75385)
Sequence of UniProt O75385 (whole entry, looked up): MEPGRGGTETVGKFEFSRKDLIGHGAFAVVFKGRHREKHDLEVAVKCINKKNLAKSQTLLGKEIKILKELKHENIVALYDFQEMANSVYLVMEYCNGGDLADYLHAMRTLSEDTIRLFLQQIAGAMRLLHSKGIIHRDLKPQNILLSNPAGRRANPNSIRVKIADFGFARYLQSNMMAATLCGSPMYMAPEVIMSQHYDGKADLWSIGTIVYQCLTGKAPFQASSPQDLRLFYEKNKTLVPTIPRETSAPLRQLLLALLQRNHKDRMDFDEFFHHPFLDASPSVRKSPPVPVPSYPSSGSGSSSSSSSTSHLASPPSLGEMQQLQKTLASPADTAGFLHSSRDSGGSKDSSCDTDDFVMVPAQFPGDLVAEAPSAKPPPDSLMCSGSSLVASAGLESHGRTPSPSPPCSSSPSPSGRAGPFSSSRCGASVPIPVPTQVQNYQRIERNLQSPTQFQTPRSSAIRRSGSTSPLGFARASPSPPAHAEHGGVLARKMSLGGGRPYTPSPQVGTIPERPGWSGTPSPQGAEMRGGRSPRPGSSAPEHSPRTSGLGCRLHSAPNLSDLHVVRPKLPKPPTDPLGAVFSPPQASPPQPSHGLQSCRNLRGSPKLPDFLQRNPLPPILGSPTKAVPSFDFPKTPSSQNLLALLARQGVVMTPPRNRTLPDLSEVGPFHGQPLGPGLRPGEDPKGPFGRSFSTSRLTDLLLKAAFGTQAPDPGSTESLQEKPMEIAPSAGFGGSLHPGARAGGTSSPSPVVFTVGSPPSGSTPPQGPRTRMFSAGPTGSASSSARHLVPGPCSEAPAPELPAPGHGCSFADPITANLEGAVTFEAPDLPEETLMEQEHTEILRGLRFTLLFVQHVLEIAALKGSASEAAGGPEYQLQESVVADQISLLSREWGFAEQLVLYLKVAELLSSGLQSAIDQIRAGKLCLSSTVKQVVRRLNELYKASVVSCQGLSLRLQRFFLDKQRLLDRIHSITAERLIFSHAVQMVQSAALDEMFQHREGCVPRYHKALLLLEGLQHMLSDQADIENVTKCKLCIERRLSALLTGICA
SMILES	remaining activity
N#CC(c1ccnc(NCCc2cccnc2)n1)c1nc2ccccc2s1 (stereo not shown)	98.5%
Clc1ccc(Nc2nnc(Cc3ccncc3)c3ccccc23)cc1	107%
O=Nc1c(-c2c(O)[nH]c3ccccc23)[nH]c2ccccc12	78.9%
Nc1nc(Nc2ccc(S(N)(=O)=O)cc2)nn1C(=S)Nc1c(F)cccc1F	5.03%
CCN(CC)CCCCN1c2ccccc2Oc2ccc(Cl)cc21	99.8%
O=c1c(-c2ccc(F)cc2)c(-c2ccncc2)[nH]n1-c1ccc(Cl)cc1	103%
CC(C)N(CCC(=O)c1ccc2ccccc2c1)Cc1ccccc1	104%
C[C@@H](N)[C@H]1CC[C@H](C(=O)Nc2ccncc2)CC1	59.3%
O=C(c1ccccc1)c1ccc(N2CCOCC2)cc1O	98.9%
NC(=O)c1cccc(-c2cc(Nc3ccc(OC(F)(F)F)cc3)ncn2)c1	97.5%
CC(C)(C)c1nc2c3cc[nH]c(=O)c3c3cc(F)ccc3c2[nH]1	12.8%
c1cc(-c2cnn3cc(-c4ccc(OCCN5CCCCC5)cc4)cnc23)ccn1	44.3%
O=C1NC(=O)/C(=C/c2ccc3c(c2)OC(F)(F)O3)S1	100%
N#C/C(=C(/N)SC1C=CC=CC1)c1cccc(C(O)c2ccncc2)c1 (stereo not shown)	103%

Block 2 — cell line: A-375; concentration: 100 µM; time: 36 h
Structure (SMILES)	viability
O=C(Nc1ccc(O)cc1)c1ccccc1O	91.9%
Cc1oncc1C(=O)Nc1ccc(C(F)(F)F)cc1	61.5%
CC1(C)O[C@@H]2C[C@H]3[C@@H]4C[C@H](F)C5=CC(=O)C=C[C@]5(C)[C@H]4[C@@H](O)C[C@]3(C)[C@]2(C(=O)CO)O1	96.8%
NC(=O)NS(=O)(=O)c1ccc(N)cc1	106%
COc1cnc(NS(=O)(=O)c2ccc(N)cc2)nc1	98.3%
CCC(=O)OCC(=O)[C@@]1(OC(=O)CC)[C@@H](C)C[C@H]2[C@@H]3CCC4=CC(=O)C=C[C@]4(C)[C@@]3(Cl)[C@@H](O)C[C@@]21C	68.2%
CCN(CC)C(=O)Nc1ccc(OCC(O)CNC(C)(C)C)c(C(C)=O)c1 (stereo not shown)	114%
CN(c1nccc(=O)[nH]1)C1CCN(c2nc3ccccc3n2Cc2ccc(F)cc2)CC1	22.9%
Nc1nc(Cl)nc2c1ncn2[C@H]1C[C@H](O)[C@@H](CO)O1	23.8%
COc1ccc(CN=c2[nH]c(N3CCC[C@H]3CO)ncc2C(=O)NCc2ncccn2)cc1Cl	33.1%
CC1(O)CCC(C(C)(C)O)CC1 (stereo not shown)	105%
CC(=O)O[C@H]1C(=O)[C@@]2(C)[C@H]([C@H](OC(=O)c3ccccc3)[C@]3(O)C[C@H](OC(=O)[C@H](O)[C@@H](NC(=O)c4ccccc4)c4ccccc4)C(C)=C1C3(C)C)[C@]1(OC(C)=O)CO[C@@H]1C[C@@H]2O	32.5%
COc1ccc(Cl)cc1C(=O)NCCc1ccc(S(=O)(=O)NC(=O)NC2CCCCC2)cc1	96.8%
O=C1c2cccc(O)c2C(=O)c2c(O)cc(CO)cc21	84.2%
COc1ccc([C@@H]2CC(=O)c3c(O)cc(O)cc3O2)cc1O	88.3%
NC(N)=Nc1nc(CSCCC(N)=NS(N)(=O)=O)cs1	104%
C#C[C@]1(O)CC[C@H]2[C@@H]3CCC4=Cc5oncc5C[C@]4(C)[C@H]3CC[C@@]21C	-0.307%

Block 3 — observed: enzyme activity; action: inhibitor; concentration: 77 µM; relative to: untreated
Target: DNA polymerase theta, ATPase domain (POLQ, Homo sapiens, UniProt O75417)
Sequence of UniProt O75417 (whole entry, unmodified, looked up): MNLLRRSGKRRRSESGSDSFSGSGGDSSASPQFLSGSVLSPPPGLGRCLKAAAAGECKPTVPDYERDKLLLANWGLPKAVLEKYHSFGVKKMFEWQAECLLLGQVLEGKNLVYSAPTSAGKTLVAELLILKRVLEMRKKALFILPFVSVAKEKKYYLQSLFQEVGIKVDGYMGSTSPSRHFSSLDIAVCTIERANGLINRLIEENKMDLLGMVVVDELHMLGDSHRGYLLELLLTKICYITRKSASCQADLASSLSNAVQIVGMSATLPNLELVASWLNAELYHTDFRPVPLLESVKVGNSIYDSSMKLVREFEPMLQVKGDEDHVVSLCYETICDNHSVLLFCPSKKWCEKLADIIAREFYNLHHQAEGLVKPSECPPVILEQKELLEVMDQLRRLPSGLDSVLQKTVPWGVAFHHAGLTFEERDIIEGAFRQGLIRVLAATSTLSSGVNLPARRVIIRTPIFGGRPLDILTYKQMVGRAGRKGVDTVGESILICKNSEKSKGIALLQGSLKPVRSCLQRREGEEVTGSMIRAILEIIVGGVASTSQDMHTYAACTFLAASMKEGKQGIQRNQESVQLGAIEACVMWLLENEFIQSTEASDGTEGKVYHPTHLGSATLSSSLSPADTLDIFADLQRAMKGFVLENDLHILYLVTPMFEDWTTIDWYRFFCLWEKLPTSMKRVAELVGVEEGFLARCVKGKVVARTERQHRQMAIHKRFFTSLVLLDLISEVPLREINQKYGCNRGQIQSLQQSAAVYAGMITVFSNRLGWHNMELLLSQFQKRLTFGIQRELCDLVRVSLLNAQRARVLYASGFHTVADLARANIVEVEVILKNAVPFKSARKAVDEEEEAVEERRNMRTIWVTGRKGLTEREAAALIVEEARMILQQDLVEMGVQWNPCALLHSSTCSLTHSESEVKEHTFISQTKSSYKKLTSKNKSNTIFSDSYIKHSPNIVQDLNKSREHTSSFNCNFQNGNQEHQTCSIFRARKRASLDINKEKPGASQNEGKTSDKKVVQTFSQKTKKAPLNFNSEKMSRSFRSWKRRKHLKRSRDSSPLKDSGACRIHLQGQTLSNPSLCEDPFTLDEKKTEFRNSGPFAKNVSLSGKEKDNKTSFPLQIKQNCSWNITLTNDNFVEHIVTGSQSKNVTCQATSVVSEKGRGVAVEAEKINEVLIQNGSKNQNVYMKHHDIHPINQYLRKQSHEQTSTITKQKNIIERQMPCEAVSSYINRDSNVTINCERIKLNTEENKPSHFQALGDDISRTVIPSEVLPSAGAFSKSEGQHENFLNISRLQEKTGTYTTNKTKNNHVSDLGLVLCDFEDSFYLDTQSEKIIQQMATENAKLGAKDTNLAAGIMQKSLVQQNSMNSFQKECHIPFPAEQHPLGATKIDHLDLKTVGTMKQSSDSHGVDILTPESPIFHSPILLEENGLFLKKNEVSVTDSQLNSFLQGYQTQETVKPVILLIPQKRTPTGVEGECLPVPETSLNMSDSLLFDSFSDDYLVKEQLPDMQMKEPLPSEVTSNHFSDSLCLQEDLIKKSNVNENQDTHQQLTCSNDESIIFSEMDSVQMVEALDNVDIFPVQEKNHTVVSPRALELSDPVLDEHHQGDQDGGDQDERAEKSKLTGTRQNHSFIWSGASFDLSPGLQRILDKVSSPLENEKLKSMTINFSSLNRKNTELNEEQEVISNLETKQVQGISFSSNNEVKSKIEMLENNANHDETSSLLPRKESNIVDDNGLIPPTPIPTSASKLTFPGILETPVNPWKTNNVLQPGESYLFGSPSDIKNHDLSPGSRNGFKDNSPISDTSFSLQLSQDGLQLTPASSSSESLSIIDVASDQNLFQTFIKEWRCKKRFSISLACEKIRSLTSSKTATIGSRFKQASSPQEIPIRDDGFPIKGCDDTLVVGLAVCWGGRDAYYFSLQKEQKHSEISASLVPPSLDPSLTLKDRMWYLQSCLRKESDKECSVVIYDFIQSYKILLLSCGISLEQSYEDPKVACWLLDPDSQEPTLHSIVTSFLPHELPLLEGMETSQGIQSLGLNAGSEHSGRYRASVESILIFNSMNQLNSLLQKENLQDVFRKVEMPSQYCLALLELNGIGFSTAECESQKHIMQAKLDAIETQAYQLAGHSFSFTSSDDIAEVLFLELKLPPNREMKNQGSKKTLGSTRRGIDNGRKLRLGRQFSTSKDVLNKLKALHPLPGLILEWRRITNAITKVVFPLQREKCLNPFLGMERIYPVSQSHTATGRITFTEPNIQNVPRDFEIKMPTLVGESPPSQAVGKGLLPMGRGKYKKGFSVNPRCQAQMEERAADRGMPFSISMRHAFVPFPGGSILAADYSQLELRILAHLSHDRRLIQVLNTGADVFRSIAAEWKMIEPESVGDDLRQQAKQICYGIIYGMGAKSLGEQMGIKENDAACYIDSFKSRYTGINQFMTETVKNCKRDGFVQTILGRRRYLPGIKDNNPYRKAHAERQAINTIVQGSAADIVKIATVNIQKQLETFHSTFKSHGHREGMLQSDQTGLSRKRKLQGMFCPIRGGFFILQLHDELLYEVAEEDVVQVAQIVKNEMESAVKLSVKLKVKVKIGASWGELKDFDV
Compound	remaining activity
NC(=O)N1c2ccccc2C=Cc2ccccc21	101% and 94.2%
O=C1C(C2=C3c4ccccc4NC3/C(=C\c3ccc(O)cc3)C2=O)=C2C(=Nc3ccccc32)/C1=C\c1ccc(O)cc1 (stereo not shown)	83.8%
CC[n+]1c(/C=C/N(C)c2ccccc2)n(-c2ccccc2)c2ccc(-c3nc4ccccc4s3)cc21	96.9%
NCC[C@H](O)C(=O)N[C@@H]1C[C@H](N)[C@@H](O[C@H]2O[C@H](CN)[C@@H](O)[C@H](O)[C@H]2O)[C@H](O)[C@H]1O[C@H]1O[C@H](CO)[C@@H](O)[C@H](N)[C@H]1O	96%
CC(=O)OCC(=O)[C@@]1(OC(C)=O)[C@@H](C)C[C@H]2[C@@H]3C[C@H](F)C4=CC(=O)C=C[C@]4(C)[C@@]3(F)[C@@H](O)C[C@@]21C	103%
CC(=O)Nc1ncc([N+](=O)[O-])s1	99.3%
c1ccc2c3c([nH]c2c1)[C@H]1[C@H]2CC[C@H]([C@@H]4CCCN[C@@H]42)N1CC3	103%
COc1nccc(-c2c(-c3ccc(F)cc3)ncn2[C@H]2CC[C@H](O)CC2)n1	83.3%
C[n+]1ccccc1/C=N/O	101%
CCC(CC)CC1(C(=O)Nc2ccccc2SC(=O)C(C)C)CCCCC1	99.3%
OC[C@@H](O)[C@@H](O)[C@H](O)[C@@H](O)CO	92.4%
CCCn1c(=O)c2[nH]c(-c3ccc(S(=O)(=O)O)cc3)nc2n(CCC)c1=O	92.3%
COc1ccc(NC(=O)c2ccc(-c3ccc(-c4noc(C)n4)cc3C)cc2)cc1N1CCN(C)CC1	102%
Cn1cc(/C=C2\C(=O)Nc3cccnc32)c2ccccc21	114% and 108% and 117%
CN(C)C(=O)[C@H](O)[C@H](Cc1ccccc1)NC(=O)c1cc2cc(Cl)ccc2[nH]1	102% and 105%
COC(=O)Nc1nc2ccc(SC(C)C)cc2[nH]1	100%

Block 4 — observed: cell-free assay; method: competition with immobilised ligand; concentration: 1 µM
SMILES: O=C(NC[C@@H]1[C@H]2CN(C(=O)OCc3cc(C(F)(F)F)cc(C(F)(F)F)c3)C[C@@H]12)c1ccc2[nH]nnc2c1
target	remaining binding
MAP2K3 (Homo sapiens, UniProt P46734)	93%
AKT3 (Homo sapiens, UniProt Q9Y243)	87%
PIK3CA (Homo sapiens, UniProt P42336)	74%
PIM2 (Homo sapiens, UniProt Q9P1W9)	100%
LCK (Homo sapiens, UniProt P06239)	100%
MAP2K5 (Homo sapiens, UniProt Q13163)	100%
STK25 (Homo sapiens, UniProt O00506)	95%
Tyrosine-protein kinase JAK1, JH1 (JAK1, Homo sapiens, UniProt P23458)	89%
FGFR3 (Homo sapiens, UniProt P22607, G697C)	92%
MAP3K10 (Homo sapiens, UniProt Q02779)	83%
NEK9 (Homo sapiens, UniProt Q8TD19)	77%
RET (Homo sapiens, UniProt P07949)	100%
RET (Homo sapiens, UniProt P07949, V804L)	100%
GRK4 (Homo sapiens, UniProt P32298)	100%

For quick reference, copied from above (block 4):
target	remaining binding
PIM2 (Homo sapiens, UniProt Q9P1W9)	100%
LCK (Homo sapiens, UniProt P06239)	100%
MAP2K5 (Homo sapiens, UniProt Q13163)	100%
STK25 (Homo sapiens, UniProt O00506)	95%
Tyrosine-protein kinase JAK1, JH1 (JAK1, Homo sapiens, UniProt P23458)	89%
FGFR3 (Homo sapiens, UniProt P22607, G697C)	92%
MAP3K10 (Homo sapiens, UniProt Q02779)	83%
NEK9 (Homo sapiens, UniProt Q8TD19)	77%
RET (Homo sapiens, UniProt P07949)	100%
RET (Homo sapiens, UniProt P07949, V804L)	100%
